# Assay results pooled from the literature.
# A part holds a random share of what one study measured. Substitutions count along the parent as printed.

# Series 1 — technique: RNA Bind-n-Seq; molecule type: RNA; matrix: in vitro; tested at: 365 nM; relative to: no-protein control; direction: higher = stronger binding
# Target: RNA binding protein fox-1 homolog 2, RRM domain, GST-SBP tag (RBFOX2, Homo sapiens, UniProt O43251-10, residues 100-194)
# Setting: natural RNA segment, single round, ends assumed
# Shared flanks, not repeated: GGGAGUUCUACAGUCCGACGAUC … UGGAAUUCUCGGGUGCCAA
# Construct (chain): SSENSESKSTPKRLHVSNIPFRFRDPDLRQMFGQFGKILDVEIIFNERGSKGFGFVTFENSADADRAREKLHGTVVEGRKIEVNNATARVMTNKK
Oligonucleotide,RBNS enrichment (R)
UUUUCUCCAUAAAGUUUGACAUCUGACCCCAGAUUCUAUGUAAUCAUUAUUAGAAAUUCCUUCUCUCAUUAUUUCAGGAUUAGUAGUUCUGUGUAAUUCAUUUUACAAUU,0.507
UUCUUCAUGGAGUUCUCAGAACCUUUCAGGGUUCAGGAGGCUCCCCUGAGAAUAGACAGGAGAGGGUCAGAAGCAGACGUCCUCCUUUUCUUGUGAUAACCACGCUACUU,0.36
CUUUCAUCUAGUACCUGGACCAUUCUCCCUAGACCCUUGCCUUCCUCCCUGGCCAACACAUACUUGCAGUGUCAGAUCUGGUACAUGAAUGGCCAUUCUACCCAGAUAGG,0.265
CCCUGUUUCAUGCCAGGGCCACCUCUGGUGAUCUAACUCUAUCCAAAUAGCGUUCUGCUUGGGAUGGUGGCUGGUUCUAUGCCUACGCUCUCCGGUGACACCUAUAAGCC,0.332
CCAGGGGAGGUUUAGGGGUCCUAUCUCCUGGGGGAAGGGGAGAUCUAAGAUGUCCCAGGUCCUGGGAAGUUUACUCAAUAAAGCUGGCUUUCCCCUGCCCUCCAUGCUGG,0.501
UCUGAUUUCAGAUGUAGUCAUUCCAGAACCUUCUCUUUAUGAGUUCACCUGCUAGUACAAUCUCCACAACUUGAAUGGCAUUGGUUGUUCUGUAAUUCCUGCCAAAAGCA,0.437
CAUCGUGUCUGUCCUGAGAGGCUCCACAAUGCCCACCCGCAUCGCCAUUCUGUAGUCUUCAGGGUCAGCUGUUGAUAAAGGGGCAGGCUUGCGUUAUUGGCCUAGAUUUU,0.487

# Series 2 — target: CCNA1, cyclin fold, Cln2 fusion (human); technique: yeast growth competition, sequencing; matrix: yeast; setting: strong parent motif; relative to: not given; direction: higher = stronger binding
# Starting sequence: CCP110 docking peptide (human); EKVKRRLDLDIDG
Change,normalised enrichment score
L7A,0.0413
G13A,0.373
R6A,0.478
D8A,0.315
K4A,0.00167
I11A,0.43
R5K,0.246

# Series 3 — technique: universal PBM; molecule type: double-stranded DNA, one strand shown; matrix: in vitro; tested at: not given; direction: higher = stronger binding
# Target: Sal-like protein 4, full length isoform B (SALL4, Homo sapiens, UniProt Q9UJQ4-2, residues 1-616)
# Setting: 8-mer, flanks averaged, mean of replicates
Oligonucleotide,E-score
TCCTAGCA,-0.05
CATTAACA,0.233
CCTCGTTC,-0.232
CCCTCAGA,-0.146
TAGCCCAA,0.03
AGCGGCAC,-0.287
GTATAAAA,0.345

# Further values, each from its own experiment
Substance,target,test,test system,setting,scale,measurement,result
"PhoQ, residues 284 288 289 292 302 303 TLASMF","PhoP, residues 12 14 15 18 19 LHTVM (Escherichia coli, UniProt P23836)","Sort-seq, measured: YFP reporter",E. coli,"PhoQ-PhoP variant library, together with: 10 µM Mg2+","relative to: high Mg2+ state, higher = stronger signaling",fold induction,1.27

# A few entries again (further values, each from its own experiment):
Substance,target,test,test system,setting,scale,measurement,result
"PhoQ, residues 284 288 289 292 302 303 TLASMF","PhoP, residues 12 14 15 18 19 LHTVM (Escherichia coli, UniProt P23836)","Sort-seq, measured: YFP reporter",E. coli,"PhoQ-PhoP variant library, together with: 10 µM Mg2+","relative to: high Mg2+ state, higher = stronger signaling",fold induction,1.27
